Results from different studies.
Each numbered part is a random draw from the data of one study; scales do not carry over between parts. Substitutions count along the parent as printed.
UniProt P07949, sequence (whole entry, looked up): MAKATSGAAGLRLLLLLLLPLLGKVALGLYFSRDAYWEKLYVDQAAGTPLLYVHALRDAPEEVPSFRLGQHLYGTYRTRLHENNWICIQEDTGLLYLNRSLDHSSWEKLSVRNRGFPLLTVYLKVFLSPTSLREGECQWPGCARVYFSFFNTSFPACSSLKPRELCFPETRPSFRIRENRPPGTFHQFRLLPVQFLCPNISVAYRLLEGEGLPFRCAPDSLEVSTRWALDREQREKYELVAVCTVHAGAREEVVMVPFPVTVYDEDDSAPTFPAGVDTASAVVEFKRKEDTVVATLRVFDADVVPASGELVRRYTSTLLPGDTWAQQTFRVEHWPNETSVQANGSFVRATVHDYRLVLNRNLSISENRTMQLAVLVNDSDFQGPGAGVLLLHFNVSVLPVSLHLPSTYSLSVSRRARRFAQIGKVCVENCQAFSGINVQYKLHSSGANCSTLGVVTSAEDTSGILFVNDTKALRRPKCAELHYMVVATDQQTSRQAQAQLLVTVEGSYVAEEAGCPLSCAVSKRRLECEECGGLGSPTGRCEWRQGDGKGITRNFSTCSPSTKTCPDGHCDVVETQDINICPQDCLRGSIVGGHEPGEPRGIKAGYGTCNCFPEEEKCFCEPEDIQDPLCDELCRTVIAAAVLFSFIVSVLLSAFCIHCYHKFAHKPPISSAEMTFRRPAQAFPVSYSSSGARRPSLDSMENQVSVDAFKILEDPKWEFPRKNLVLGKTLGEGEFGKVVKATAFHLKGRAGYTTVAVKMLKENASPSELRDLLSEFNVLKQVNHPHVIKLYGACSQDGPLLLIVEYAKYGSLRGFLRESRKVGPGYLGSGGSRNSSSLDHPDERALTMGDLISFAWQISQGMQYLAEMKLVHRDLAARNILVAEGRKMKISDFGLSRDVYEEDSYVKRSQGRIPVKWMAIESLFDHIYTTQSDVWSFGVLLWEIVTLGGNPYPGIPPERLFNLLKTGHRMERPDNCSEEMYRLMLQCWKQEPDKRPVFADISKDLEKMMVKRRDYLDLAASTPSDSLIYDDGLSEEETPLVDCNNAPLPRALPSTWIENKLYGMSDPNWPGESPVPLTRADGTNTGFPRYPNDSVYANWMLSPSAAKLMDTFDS

Block 1
Target: CCNB3, cyclin fold, Cln2 fusion (human)
Method: yeast growth competition, sequencing
Matrix: yeast
Setting: weak parent motif
Relative to: not given
Direction: higher = stronger binding
Parent: CDKN1B docking peptide (human); PSACRNLFGPVDH
Change | normalised enrichment score
A3P | 0.249
L7Y | 0.139
N6V | 0.768
P10K | 0.121
A3W | 0.345
R5D | 0.272
S2I | 0.317
H13E | 0.0977

Block 2
Target: Tyrosine-protein kinase SYK (SYK, Homo sapiens, UniProt P43405)
Effect on: enzyme activity
Action: inhibitor
Tested at: 0.5 µM
Relative to: control
Compound | remaining activity
NC(=O)c1ccc(-c2nc(-c3ccc4c(c3)OCCO4)c(-c3ccccn3)[nH]2)cc1 | 99.9%
CNc1cc2c(Nc3cccc(Br)c3)ncnc2cn1 | 95.3%
CC(C)N(CCC(=O)c1ccc2ccccc2c1)Cc1ccccc1 | 101%
O=C(O)/C=C/c1cc(Br)c(Br)c(Br)c1Br | 102%
Nc1nc(Nc2ccc(S(N)(=O)=O)cc2)nn1C(=S)Nc1c(F)cccc1F | 15.5%
O=C1c2ccccc2-c2nc3nnnn3nc21 | 94.8%
O=C1NC(=O)/C(=C/c2ccc3c(c2)OC(F)(F)O3)S1 | 95.3%

Block 3
Target: Interferon regulatory factor 7, full length, phosphomimetic (IRF7, Homo sapiens, UniProt Q92985, residues 1-503, S101K/S471D/S472D/S475D/S476D/S477D/S483D/S484D/S487D)
UniProt Q92985, sequence (whole entry, unmodified, looked up): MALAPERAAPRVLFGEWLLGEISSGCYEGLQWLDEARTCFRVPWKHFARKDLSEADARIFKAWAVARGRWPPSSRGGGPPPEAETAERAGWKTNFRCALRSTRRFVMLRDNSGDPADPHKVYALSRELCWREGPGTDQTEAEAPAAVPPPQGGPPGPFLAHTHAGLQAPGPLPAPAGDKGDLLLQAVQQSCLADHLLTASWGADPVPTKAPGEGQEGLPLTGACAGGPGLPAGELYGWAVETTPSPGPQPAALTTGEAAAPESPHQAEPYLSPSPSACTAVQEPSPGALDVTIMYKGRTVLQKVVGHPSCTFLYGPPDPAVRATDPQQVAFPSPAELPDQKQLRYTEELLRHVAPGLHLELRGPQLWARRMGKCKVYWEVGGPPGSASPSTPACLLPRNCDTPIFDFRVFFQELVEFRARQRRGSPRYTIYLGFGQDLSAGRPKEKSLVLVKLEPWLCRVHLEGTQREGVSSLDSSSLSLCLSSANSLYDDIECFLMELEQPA
Method: protein-binding microarray
Form: double-stranded DNA, one strand shown
Matrix: in vitro
Tested at: 250 nM
Setting: 60-bp whole probe
Together with: salmon DNA 0.4 mg/ml
Relative to: random background probes
Direction: higher = stronger binding
Shared flanks, not repeated: GCCTAGCAC … GTCTTGATTCGCTTGACGCTGCTG
Strand | log fluorescence
GACGGACTGGGGTATCTGGACGTGCTA | -0.689 z-score
TTAGGGTCCGGTTTCGGTTAGTGCTAG | 9.24 z-score
TCATGTATGGATGTGTCACTGTGCTAG | -0.224 z-score
ACCATTTTGGTTTTCTCTATGTGCTAG | 0.848 z-score
GAGTTCCTCTCTAGGCACTGGTGCTAG | 1.3 z-score
TACGGTTTCCTTTCCCTGACGTGCTAG | 5.07 z-score
GACGGTTACGGGACTGGGGACGTGCTA | -0.537 z-score
TACTTTCTACGTCTGATTTTGTGCTAG | 1.72 z-score

Further values, each from its own experiment
Structure (SMILES) | target | effect on | method | tested at | measurement | value
CO[C@H]1CC[C@H](CNc2ccc(S(=O)(=O)NC(=O)c3ccc(N4CCN(CC5=C(c6ccc(Cl)cc6)CC(C)(C)CC5)CC4)cc3Oc3cnc4[nH]ccc4c3)cc2[N+](=O)[O-])CC1 | Proto-oncogene tyrosine-protein kinase receptor Ret (RET, Homo sapiens, UniProt P07949) | cell-free assay | competition with immobilised ligand | 1 µM | remaining binding | 100%
